Measured values of several laboratories.
± marks the error that the study gave.
Gamma-aminobutyric acid receptor-associated protein: Gamma-aminobutyric acid receptor-associated protein (Homo sapiens, UniProt O95166)
FGFR4: Fibroblast growth factor receptor 4 (FGFR4, Homo sapiens, UniProt P22455)
Sequence of UniProt P22455 (whole entry, looked up): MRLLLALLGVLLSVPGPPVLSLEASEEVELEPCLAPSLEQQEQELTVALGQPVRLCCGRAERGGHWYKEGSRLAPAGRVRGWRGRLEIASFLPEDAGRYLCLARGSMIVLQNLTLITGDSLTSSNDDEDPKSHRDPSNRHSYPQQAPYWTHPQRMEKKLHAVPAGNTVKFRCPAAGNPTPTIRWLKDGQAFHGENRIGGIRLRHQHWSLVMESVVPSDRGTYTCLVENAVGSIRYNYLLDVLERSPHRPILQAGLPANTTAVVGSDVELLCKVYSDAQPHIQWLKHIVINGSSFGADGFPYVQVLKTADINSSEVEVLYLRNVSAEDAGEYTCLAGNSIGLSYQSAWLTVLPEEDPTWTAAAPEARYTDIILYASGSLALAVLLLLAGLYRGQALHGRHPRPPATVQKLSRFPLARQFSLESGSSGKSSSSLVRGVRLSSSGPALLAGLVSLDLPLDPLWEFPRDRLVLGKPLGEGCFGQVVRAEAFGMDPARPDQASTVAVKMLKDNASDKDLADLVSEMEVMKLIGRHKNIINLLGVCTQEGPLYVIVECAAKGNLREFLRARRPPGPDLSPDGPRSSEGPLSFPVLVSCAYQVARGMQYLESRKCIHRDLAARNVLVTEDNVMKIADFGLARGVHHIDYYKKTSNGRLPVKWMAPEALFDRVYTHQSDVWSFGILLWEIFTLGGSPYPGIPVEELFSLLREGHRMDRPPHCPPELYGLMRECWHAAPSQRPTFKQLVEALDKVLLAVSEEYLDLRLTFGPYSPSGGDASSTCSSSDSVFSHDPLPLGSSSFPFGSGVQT
Sequence of UniProt Q13451 (whole entry, looked up): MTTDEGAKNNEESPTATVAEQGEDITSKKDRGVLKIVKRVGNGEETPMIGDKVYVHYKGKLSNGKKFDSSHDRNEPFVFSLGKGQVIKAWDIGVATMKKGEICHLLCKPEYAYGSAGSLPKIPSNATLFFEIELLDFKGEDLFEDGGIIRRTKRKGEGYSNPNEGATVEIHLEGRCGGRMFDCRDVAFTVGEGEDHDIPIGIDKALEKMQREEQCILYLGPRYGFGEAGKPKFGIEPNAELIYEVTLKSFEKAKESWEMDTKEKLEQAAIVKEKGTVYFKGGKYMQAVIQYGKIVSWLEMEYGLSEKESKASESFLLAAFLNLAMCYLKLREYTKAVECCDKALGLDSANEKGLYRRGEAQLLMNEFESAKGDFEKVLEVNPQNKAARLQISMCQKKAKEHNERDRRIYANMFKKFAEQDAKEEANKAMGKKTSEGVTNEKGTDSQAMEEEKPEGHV
Sequence of UniProt Q9NZC7 (whole entry, looked up): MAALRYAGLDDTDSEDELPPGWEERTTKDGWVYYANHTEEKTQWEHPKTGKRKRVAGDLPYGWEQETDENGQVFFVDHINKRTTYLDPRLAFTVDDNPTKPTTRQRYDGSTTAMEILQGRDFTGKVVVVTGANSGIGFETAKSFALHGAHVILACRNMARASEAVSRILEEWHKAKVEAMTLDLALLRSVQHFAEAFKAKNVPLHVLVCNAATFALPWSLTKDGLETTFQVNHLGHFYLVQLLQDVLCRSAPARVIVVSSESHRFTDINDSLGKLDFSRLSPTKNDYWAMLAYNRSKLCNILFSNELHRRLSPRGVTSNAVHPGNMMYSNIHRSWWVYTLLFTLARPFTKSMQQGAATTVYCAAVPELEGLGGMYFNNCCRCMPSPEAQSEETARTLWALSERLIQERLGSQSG
Sequence of UniProt P00691 (whole entry, looked up): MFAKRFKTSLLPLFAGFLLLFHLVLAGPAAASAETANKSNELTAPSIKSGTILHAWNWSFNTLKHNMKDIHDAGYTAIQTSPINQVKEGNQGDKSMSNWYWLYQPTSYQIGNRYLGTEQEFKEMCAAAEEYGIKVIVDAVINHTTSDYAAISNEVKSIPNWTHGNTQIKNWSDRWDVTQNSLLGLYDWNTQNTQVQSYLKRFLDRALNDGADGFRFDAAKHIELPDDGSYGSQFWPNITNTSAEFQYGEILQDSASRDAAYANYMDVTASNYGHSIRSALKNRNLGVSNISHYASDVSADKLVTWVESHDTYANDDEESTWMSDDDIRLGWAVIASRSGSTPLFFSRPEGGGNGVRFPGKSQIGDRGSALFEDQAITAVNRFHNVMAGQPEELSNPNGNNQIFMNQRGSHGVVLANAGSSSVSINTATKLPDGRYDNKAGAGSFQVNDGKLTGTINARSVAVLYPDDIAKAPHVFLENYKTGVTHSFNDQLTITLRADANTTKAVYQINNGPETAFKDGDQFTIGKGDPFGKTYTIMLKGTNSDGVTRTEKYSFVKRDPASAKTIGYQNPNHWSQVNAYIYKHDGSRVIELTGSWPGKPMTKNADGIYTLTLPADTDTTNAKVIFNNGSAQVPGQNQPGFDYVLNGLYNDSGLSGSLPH
Sequence of UniProt P35222 (whole entry, looked up): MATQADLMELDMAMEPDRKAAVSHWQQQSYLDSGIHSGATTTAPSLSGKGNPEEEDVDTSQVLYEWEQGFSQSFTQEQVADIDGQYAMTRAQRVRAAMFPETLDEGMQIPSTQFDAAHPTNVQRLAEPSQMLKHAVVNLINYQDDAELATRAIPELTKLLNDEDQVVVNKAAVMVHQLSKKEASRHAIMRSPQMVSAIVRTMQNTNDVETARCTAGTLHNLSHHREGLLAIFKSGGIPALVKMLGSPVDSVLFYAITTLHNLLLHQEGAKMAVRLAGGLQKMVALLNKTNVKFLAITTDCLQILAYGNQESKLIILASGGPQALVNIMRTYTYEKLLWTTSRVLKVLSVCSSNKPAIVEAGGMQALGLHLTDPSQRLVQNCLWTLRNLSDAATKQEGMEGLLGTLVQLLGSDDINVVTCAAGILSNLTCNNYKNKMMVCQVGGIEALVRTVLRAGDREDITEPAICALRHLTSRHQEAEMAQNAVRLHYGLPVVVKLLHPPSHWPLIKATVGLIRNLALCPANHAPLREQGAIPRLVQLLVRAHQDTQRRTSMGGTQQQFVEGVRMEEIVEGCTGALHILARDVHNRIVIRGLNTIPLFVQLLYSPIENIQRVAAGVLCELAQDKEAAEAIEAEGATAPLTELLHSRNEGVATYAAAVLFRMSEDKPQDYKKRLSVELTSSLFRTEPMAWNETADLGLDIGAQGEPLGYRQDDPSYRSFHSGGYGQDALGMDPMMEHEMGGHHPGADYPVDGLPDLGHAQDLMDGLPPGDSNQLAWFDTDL
Sequence of UniProt P97287 (152-308, looked up): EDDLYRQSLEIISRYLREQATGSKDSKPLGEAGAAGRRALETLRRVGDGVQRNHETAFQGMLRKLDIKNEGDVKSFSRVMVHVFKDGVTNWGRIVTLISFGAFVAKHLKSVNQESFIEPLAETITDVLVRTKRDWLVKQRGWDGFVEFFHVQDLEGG

Compound	target	assay	system	conditions	Kd
CC(C)C[C@H](NC(=O)[C@H](Cc1c[nH]cn1)NC(=O)[C@H](CCC(=O)O)NC(=O)[C@H](Cc1c[nH]c2ccccc12)NC(=O)[C@@H](NC(=O)[C@H](Cc1ccc(O)cc1)NC(=O)[C@@H](NC(=O)[C@H](C)NC(=O)[C@H](CC(=O)O)NC(=O)CCNC(=O)CCNC(=O)CCCC[C@@H]1SC[C@@H]2NC(=O)N[C@@H]21)[C@@H](C)O)[C@@H](C)O)C(=O)N[C@@H](C)C(=O)N[C@@H](Cc1c[nH]c2ccccc12)C(=O)N1CCC[C@H]1C(N)=O	Gamma-aminobutyric acid receptor-associated protein	binding, BLI	–	–	0.39 µM
CC[C@H](C)[C@H](NC(=O)[C@H](CCC(=O)O)NC(=O)[C@H](CCCNC(=N)N)NC(=O)[C@H](C)NC(=O)[C@H](Cc1c[nH]c2ccccc12)NC(=O)[C@H](CCC(=O)O)NC(=O)[C@H](CCC(=O)O)NC(=O)[C@H](CCC(=O)O)NC(C)=O)C(=O)NCC(=O)N[C@@H](C)C(=O)N[C@@H](CCC(N)=O)C(=O)N[C@@H](CC(C)C)C(=O)N[C@@H](CCCNC(=N)N)C(=O)N[C@@H](CCCNC(=N)N)C(=O)N[C@@H](C)C(=O)N[C@@H](C)C(=O)N[C@@H](CC(=O)O)C(=O)N[C@@H](CC(=O)O)C(=O)N[C@@H](CC(C)C)C(=O)N[C@@H](CC(N)=O)C(=O)N[C@@H](C)C(=O)N[C@@H](CCC(N)=O)C(=O)N[C@@H](Cc1ccc(O)cc1)C(=O)N[C@@H](CCC(=O)O)C(=O)N[C@@H](CCCNC(=N)N)C(=O)N[C@@H](CCCNC(=N)N)C(=O)N[C@@H](CCCNC(=N)N)C(N)=O	Induced myeloid leukemia cell differentiation protein Mcl-1 homolog, residues 152-308 (Mus musculus, UniProt P97287)	binding, SPR	–	–	0.004 µM
CSCC[C@H](NC(C)=O)C(=O)N[C@@H](CCC(N)=O)C(=O)N[C@H](C(=O)N[C@H]1CSCc2cccc(c2)CSC[C@@H](C(=O)NCC(=O)N[C@@H](Cc2ccc(O)cc2)C(=O)NCC(=O)N[C@@H](CO)C(=O)NCC(=O)N[C@@H](CO)C(=O)NCC(=O)N[C@@H](CO)C(=O)N[C@@H](CC(=O)O)C(=O)N[C@@H](Cc2ccc(O)cc2)C(=O)N[C@@H](CCCCN)C(=O)N[C@@H](CC(=O)O)C(=O)N[C@@H](CC(=O)O)C(=O)N[C@@H](CC(=O)O)C(=O)N[C@@H](CC(=O)O)C(=O)N[C@@H](CCCCN)C(N)=O)NC(=O)[C@H](CC(C)C)NC(=O)[C@H](C(C)C)NC(=O)[C@H](CC(C)C)NC(=O)[C@H](Cc2c[nH]cn2)NC(=O)[C@H](CCC(=O)O)NC(=O)[C@H](CCCCN)NC(=O)[C@H](Cc2ccccc2)NC(=O)[C@H]([C@@H](C)O)NC1=O)[C@@H](C)O	FGFR4	binding, BLI	–	–	> 10 µM
CC[C@H](C)[C@H](NC(=O)[C@H](CCCNC(=N)N)NC(=O)[C@H](CO)NC(=O)[C@@H](NC(=O)[C@H](CC(=O)O)NC(=O)[C@H](CC(=O)O)NC(=O)CCCCCNC(=O)c1ccc2c(c1)C(=O)OC21c2ccc(O)cc2Oc2cc(O)ccc21)[C@@H](C)O)C(=O)N[C@@H](CCC(=O)O)C(=O)N[C@@H](CCC(=O)O)C(=O)N[C@H](C(=O)N[C@@H](CC(=O)O)C(=O)O)C(C)C	FKBP5 (Homo sapiens, UniProt Q13451)	binding, FP	–	pH 7.4	> 25 µM
CC[C@H](C)[C@H](NC(=O)[C@H](CCC(N)=O)NC(=O)[C@H](CO)NC(=O)[C@H](CC(C)(C)C)NC(=O)[C@H](CCC(=O)O)NC(=O)[C@H](CCC(=O)O)NC(=O)[C@H](CC(=O)O)NC(=O)[C@@H]1CCSCc2cccc(c2)CSCC[C@H](NC(=O)[C@H](C)NC(=O)[C@H](CC(=O)O)NC(=O)[C@H](CC(=O)O)NC(=O)[C@H](CCCNC(=N)N)NC(=O)CCNC(=O)CCNC(=O)CCCC[C@@H]2SC[C@@H]3NC(=O)N[C@@H]32)C(=O)N[C@@H](Cc2ccc3ccccc3c2)C(=O)N[C@@H](CC(=O)O)C(=O)N[C@@H]([C@@H](C)CC)C(=O)N[C@@H]([C@@H](C)CC)C(=O)N1)C(=O)N[C@@H](CCC(N)=O)C(=O)N[C@@H](CCC(=O)O)C(=O)N[C@@H](Cc1c[nH]c2ccccc12)C(N)=O	Gamma-aminobutyric acid receptor-associated protein	binding, BLI	–	pH 7.4	1.4 µM
CC(C)P(=S)(NP(=S)(C(C)C)C(C)C)C(C)C	Alpha-amylase (Bacillus subtilis, UniProt P00691)	fluorescence quenching	–	304 K	1090 µM
CC[C@H](C)[C@H](NC(=O)[C@H](Cc1c[nH]cn1)NC(=O)[C@H](CCCCNC(=O)[C@@H](NC(=O)[C@H](CCCCN)NC(=O)CSC[C@H](NC(=O)[C@H](Cc1ccccc1)NC(=O)[C@H](CCCCNC(=O)[C@H](CC(C)C)NC(=O)[C@@H]1CCCN1C(=O)[C@H](CCCCN)NC(=O)C[C@@H]1O[C@@H](C)[C@@H](O)[C@@H](O)[C@@H]1O)NC(=O)[C@H](CC(C)C)NC(=O)[C@@H]1CCCN1C(=O)[C@H](CCCCN)NC(=O)CCS[C@@H]1O[C@H](CO)[C@H](O)[C@H](O)[C@H]1O)C(N)=O)[C@@H](C)CC)NC(=O)[C@@H](NC(=O)[C@H](CCCCN)NC(=O)CSC[C@H](NC(=O)[C@H](Cc1ccccc1)NC(=O)[C@H](CCCCNC(=O)[C@H](CC(C)C)NC(=O)[C@@H]1CCCN1C(=O)[C@H](CCCCN)NC(=O)C[C@@H]1O[C@@H](C)[C@@H](O)[C@@H](O)[C@@H]1O)NC(=O)[C@H](CC(C)C)NC(=O)[C@@H]1CCCN1C(=O)[C@H](CCCCN)NC(=O)CCS[C@@H]1O[C@H](CO)[C@H](O)[C@H](O)[C@H]1O)C(N)=O)[C@@H](C)CC)C(N)=O	lecA (Pseudomonas aeruginosa, UniProt Q05097)	binding, ITC	–	pH 7.5	0.12 µM
CC[C@H](C)[C@H](NC(=O)[C@H](CC(C)C)NC(=O)[C@H](CC(C)C)NC(=O)CNC(=O)[C@H](CCCCN)NC(=O)[C@H](C)NC(=O)[C@H](CC(C)C)NC(=O)[C@H](CC(C)C)NC(=O)[C@H](CCCCN)NC(=O)[C@H](Cc1c[nH]c2ccccc12)NC(=O)[C@@H](N)CC(N)=O)C(=O)N[C@@H](CCCNC(=N)N)C(=O)N[C@@H](CCC(=O)O)C(=O)N[C@@H](CCCNC(=N)N)C(=O)N[C@@H](CC(C)C)C(=O)N[C@@H](CCCCN)C(=O)N[C@@H](CCCNC(=N)N)C(=O)O	Centrin-1, N-terminal 21 residues deleted (CEN1, Toxoplasma gondii, UniProt A0A125YHX7)	binding, ITC	–	pH 7.5, 25 °C, added: 5 mM CaCl2	0.396 ± 0.0609 µM
CC[C@H](C)[C@H](NC(=O)[C@@H](NC(=O)[C@H](C)NC(=O)[C@H](CCC(=O)O)NC(=O)[C@H](CO)NC(=S)Nc1ccc2c(c1)C(=O)OC21c2ccc(O)cc2Oc2cc(O)ccc21)C(C)C)C(=O)N[C@H](C(=O)N[C@H](C(=O)N1CCC[C@H]1C(=O)N[C@@H](Cc1ccccc1)C(=O)N[C@@H](CC(C)C)C(=O)N[C@H](C(=O)N[C@@H](CC(N)=O)C(=O)N[C@@H](CC(C)C)C(=O)O)[C@@H](C)O)[C@@H](C)CC)C(C)C	Rgg transcriptional regulator (Streptococcus pneumoniae, UniProt A0A0E7KI02)	binder, fluorescence polarization	–	20 min, pH 7.4, 20 °C, fluorescein-labelled peptide	50 ± 3.6 µM
CC[C@H](C)[C@H](NC(=O)[C@@H]1CCCN1C(=O)[C@@H]1CCCN1C(=O)[C@@H]1CCCN1C(=O)[C@@H](NC(=O)[C@H](CC(N)=O)NC(=O)[C@H](Cc1ccccc1)NC(=O)[C@H](C)N)[C@@H](C)CC)C(=O)N[C@@H](Cc1ccc(O)cc1)C(=O)N[C@H](C(=O)N[C@@H](CO)C(=O)N[C@@H](CCCNC(=N)N)C(=O)N[C@@H](C)C(=O)NCC(=O)NCC(=O)NCC(=O)NCC(=O)NCC(=O)N[C@H](C(=O)N[C@H](C(=O)N[C@@H](CC(C)C)C(=O)N1CCC[C@H]1C(=O)N1CCC[C@H]1C(=O)N1CCC[C@H]1C(=O)N1CCC[C@H]1C(=O)N[C@@H](Cc1ccc(O)cc1)C(=O)N[C@@H](CCCNC(=N)N)C(=O)N[C@@H](Cc1c[nH]cn1)C(=O)N[C@@H](CCCNC(=N)N)C(=O)N[C@@H](CC(N)=O)C(=O)O)C(C)C)[C@@H](C)O)[C@@H](C)O	WW domain-containing oxidoreductase, WW1-WW2 tandem domains (WWOX, Homo sapiens, UniProt Q9NZC7)	ITC	tandem WW1-WW2 domain	pH 7.8, 20 °C, some values lower limits only	8 ± 1.3 µM
CC[C@H](C)[C@H](NC(=O)[C@H](CO)NC(=O)[C@H](CCCNC(=N)N)NC(=O)[C@@H]1CCCN1C(=O)[C@H](Cc1c[nH]c2ccccc12)NC(=O)[C@H](CCCNC(=N)N)NC(=O)[C@H](CCCNC(=N)N)NC(C)=O)C(=O)N[C@@H](CC(C)C)C(=O)N[C@@H](CC(=O)O)C(=O)N[C@@H](CCC(=O)O)C(=O)N[C@@H](Cc1c[nH]cn1)C(=O)N[C@H](C(=O)N[C@@H](CCCNC(=N)N)C(=O)N[C@@H](CCCNC(=N)N)C(=O)N[C@H](C(=O)N[C@@H](Cc1c[nH]c2ccccc12)C(=O)N[C@@H](CCCNC(=N)N)C(=O)NCCCCCC(=O)N[C@@H](C)C(=O)N[C@@H](CC(C)C)C(=O)N[C@@H](C)C(=O)N1CCC[C@H]1C(=O)N[C@@H](Cc1ccc(O)cc1)C(=O)N[C@H](C(=O)N1CCC[C@H]1C(=O)N[C@@H](Cc1ccc(O)cc1)C(=O)NCC(=O)N[C@@H](CCCNC(=N)N)C(=O)N[C@@H](CCCCN)C(=O)N[C@@H](CCCCN)C(=O)N[C@@H](CCCNC(=N)N)C(=O)N[C@@H](CCCNC(=N)N)C(=O)N[C@@H](CCC(N)=O)C(=O)N[C@@H](CCCNC(=N)N)C(=O)N[C@@H](CCCNC(=N)N)C(=O)N[C@@H](CCCNC(=N)N)C(N)=O)[C@@H](C)CC)C(C)C)C(C)C	Catenin beta-1 (CTNNB1, Homo sapiens, UniProt P35222)	binding, MST	–	–	7.27 µM
CSCC[C@H](NC(C)=O)C(=O)N[C@@H](CO)C(=O)N[C@@H](CO)C(=O)N1CCC[C@H]1C(=O)N1CCC[C@H]1C(=O)N[C@H]1CSCc2cc3cc(c2)CSC[C@@H](C(=O)N[C@@H](CC(C)C)C(=O)N[C@@H](CCCNC(=N)N)C(=O)N[C@@H](CCCNC(=N)N)C(=O)N[C@@H](Cc2ccc(O)cc2)C(=O)NCC(=O)N[C@@H](CO)C(=O)NCC(=O)N[C@@H](CO)C(=O)NCC(=O)N[C@@H](CO)C(=O)N[C@@H](CC(=O)O)C(=O)N[C@@H](Cc2ccc(O)cc2)C(=O)N[C@@H](CCCCN)C(=O)N[C@@H](CC(=O)O)C(=O)N[C@@H](CC(=O)O)C(=O)N[C@@H](CC(=O)O)C(=O)N[C@@H](CC(=O)O)C(=O)N[C@@H](CCCCN)C(N)=O)NC(=O)[C@H](CSC3)NC(=O)CNC(=O)[C@H](CC(C)C)NC(=O)[C@H]([C@@H](C)O)NC1=O	FGFR4	binding, BLI	–	–	0.0917 µM
